Experimental data gathered from unrelated publications.
Each line is one published result; not all experiments were run side by side. “And” joins repeats or separate records; there may be more than shown. ± marks the error that the study gave.
Nuclear receptor subfamily 2 group C member 2 ligand-binding domain: Nuclear receptor subfamily 2 group C member 2, ligand-binding domain (Homo sapiens, UniProt P49116)
Sequence of UniProt P11247 (whole entry, looked up): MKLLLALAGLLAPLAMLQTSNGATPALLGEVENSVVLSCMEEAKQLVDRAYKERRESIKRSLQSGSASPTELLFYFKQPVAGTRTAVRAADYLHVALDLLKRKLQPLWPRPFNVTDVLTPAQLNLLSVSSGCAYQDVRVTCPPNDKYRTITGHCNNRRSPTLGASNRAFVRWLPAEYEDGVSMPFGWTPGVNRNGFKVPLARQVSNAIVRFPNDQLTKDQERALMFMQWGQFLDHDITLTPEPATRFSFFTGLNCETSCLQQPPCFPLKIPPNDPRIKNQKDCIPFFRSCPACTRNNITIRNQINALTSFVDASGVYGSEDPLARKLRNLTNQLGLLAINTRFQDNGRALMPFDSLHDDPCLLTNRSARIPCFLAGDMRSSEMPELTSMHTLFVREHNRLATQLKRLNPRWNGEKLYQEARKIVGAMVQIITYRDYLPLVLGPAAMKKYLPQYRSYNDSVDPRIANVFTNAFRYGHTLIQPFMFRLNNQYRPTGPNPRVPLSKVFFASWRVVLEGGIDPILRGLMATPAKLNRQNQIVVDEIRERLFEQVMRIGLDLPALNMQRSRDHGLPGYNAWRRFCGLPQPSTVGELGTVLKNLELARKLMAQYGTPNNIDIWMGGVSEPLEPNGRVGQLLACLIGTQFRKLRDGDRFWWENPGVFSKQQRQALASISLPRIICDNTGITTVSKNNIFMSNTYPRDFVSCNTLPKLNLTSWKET
Sequence of UniProt P49116 (whole entry, looked up): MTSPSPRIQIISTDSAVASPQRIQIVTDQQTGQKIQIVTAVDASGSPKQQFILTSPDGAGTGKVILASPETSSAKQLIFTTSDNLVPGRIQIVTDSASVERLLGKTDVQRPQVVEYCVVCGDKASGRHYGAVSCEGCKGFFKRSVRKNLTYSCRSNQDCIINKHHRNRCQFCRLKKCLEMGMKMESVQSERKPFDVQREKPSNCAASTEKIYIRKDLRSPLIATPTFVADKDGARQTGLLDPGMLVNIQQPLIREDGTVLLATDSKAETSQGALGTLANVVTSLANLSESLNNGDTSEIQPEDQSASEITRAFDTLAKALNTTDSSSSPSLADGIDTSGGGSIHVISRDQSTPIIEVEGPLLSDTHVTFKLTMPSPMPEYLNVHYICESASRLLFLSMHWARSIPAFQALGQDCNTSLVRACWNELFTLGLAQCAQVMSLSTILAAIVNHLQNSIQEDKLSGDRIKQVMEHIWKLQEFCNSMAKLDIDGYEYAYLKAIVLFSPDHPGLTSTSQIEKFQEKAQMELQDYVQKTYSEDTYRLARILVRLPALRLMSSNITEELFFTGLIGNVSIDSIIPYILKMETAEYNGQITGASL
Sequence of UniProt Q9P1W9 (whole entry, looked up): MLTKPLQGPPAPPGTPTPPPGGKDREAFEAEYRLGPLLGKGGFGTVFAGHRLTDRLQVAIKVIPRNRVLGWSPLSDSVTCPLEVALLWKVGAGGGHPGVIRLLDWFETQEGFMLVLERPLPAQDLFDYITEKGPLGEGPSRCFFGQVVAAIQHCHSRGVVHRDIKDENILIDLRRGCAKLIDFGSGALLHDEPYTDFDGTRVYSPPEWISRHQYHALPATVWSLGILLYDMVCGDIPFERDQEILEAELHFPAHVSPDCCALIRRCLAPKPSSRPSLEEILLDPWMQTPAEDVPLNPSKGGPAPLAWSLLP
Sequence of UniProt P04746 (whole entry, looked up): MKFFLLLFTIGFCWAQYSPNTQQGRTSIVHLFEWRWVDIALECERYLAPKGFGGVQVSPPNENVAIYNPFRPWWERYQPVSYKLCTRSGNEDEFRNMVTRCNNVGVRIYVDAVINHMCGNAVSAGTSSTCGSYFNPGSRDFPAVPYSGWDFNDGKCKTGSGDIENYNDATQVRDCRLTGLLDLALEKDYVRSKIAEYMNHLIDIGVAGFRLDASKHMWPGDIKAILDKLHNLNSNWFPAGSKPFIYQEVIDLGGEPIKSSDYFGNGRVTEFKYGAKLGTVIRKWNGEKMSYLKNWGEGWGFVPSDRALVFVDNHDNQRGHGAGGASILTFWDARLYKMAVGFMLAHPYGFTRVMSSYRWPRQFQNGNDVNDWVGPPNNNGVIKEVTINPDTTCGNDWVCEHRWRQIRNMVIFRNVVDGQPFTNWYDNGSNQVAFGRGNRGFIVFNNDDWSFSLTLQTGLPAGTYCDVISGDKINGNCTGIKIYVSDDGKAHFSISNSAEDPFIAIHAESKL
Sequence of UniProt P46100 (whole entry, unmodified, looked up): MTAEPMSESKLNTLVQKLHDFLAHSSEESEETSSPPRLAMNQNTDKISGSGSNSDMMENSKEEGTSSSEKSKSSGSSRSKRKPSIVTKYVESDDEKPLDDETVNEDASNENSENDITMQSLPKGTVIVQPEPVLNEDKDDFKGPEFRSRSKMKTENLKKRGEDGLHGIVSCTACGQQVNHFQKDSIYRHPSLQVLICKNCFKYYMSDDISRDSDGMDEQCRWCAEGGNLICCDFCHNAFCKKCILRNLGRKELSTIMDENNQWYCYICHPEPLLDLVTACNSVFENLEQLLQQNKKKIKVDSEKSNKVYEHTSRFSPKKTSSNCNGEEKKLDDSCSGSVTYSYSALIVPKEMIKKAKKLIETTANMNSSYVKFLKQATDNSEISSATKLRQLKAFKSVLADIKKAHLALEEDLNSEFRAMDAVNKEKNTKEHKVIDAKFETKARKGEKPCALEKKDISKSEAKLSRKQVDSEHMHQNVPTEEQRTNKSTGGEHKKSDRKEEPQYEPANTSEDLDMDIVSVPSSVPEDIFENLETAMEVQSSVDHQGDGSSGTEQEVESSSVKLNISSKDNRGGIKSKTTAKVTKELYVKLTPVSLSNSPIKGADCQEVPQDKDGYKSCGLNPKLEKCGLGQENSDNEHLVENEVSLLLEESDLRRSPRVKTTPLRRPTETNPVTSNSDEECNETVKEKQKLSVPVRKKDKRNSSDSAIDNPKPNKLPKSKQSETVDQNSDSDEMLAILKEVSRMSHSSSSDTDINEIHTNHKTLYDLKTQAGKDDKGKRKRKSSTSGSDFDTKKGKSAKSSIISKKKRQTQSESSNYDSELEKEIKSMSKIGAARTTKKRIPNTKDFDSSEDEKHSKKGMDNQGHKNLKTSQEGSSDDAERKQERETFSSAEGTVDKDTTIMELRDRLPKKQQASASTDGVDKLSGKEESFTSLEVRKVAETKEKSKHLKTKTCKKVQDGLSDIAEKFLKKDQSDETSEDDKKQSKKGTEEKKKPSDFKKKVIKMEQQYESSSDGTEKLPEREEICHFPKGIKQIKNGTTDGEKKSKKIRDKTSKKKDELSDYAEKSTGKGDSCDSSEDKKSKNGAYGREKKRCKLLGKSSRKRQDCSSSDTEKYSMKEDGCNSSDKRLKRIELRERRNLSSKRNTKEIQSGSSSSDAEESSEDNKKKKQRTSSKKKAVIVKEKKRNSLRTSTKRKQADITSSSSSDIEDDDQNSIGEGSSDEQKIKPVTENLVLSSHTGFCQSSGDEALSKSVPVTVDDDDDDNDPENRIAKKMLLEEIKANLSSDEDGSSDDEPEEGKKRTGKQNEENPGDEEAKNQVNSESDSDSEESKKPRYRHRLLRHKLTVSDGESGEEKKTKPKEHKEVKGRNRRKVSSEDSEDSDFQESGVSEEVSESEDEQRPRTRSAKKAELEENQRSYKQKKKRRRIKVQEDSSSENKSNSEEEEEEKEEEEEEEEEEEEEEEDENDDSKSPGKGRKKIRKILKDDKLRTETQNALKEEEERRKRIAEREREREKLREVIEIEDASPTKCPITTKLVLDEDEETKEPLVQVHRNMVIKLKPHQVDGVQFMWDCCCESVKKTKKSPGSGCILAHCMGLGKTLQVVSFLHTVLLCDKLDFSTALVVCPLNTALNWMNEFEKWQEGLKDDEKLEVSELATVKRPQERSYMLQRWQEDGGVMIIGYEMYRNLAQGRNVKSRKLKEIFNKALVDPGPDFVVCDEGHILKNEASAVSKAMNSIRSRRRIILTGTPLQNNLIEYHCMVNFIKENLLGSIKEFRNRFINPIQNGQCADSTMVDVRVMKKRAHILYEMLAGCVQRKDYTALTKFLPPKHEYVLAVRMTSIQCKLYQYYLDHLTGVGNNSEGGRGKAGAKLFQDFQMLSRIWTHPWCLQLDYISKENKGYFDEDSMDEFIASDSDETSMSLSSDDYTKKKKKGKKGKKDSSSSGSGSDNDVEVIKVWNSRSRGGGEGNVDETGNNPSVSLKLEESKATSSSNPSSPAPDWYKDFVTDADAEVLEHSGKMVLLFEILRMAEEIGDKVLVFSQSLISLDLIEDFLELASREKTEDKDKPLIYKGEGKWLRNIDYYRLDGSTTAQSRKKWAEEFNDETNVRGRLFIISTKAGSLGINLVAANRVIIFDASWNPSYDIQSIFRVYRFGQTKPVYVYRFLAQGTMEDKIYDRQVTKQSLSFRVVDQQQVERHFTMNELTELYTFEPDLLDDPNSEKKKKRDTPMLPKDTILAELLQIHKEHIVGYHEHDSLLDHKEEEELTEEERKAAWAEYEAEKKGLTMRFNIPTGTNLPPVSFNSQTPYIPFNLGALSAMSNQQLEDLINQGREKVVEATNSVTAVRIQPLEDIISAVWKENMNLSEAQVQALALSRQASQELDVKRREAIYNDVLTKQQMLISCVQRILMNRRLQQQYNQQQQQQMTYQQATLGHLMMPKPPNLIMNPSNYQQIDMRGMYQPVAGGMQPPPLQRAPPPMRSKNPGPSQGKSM
Sequence of UniProt Q16774 (whole entry, unmodified, looked up): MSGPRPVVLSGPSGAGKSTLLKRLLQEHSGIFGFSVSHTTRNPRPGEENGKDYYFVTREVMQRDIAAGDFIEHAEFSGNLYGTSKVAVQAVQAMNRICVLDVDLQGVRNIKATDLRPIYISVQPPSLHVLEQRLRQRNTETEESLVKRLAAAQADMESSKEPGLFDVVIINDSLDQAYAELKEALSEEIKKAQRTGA

The Vmax of `Oc1ccc([C@@H]2c3c(O)cc(O)cc3[C@@H]3c4c(cc(O)c5c4[C@@H]2[C@H](c2ccc(O)cc2)[C@H]5c2cc(O)cc4c2[C@@H](c2cc(O)cc(O)c2)[C@H](c2ccc(O)cc2)O4)O[C@H]3c2ccc(O)cc2)cc1` is reported as 1300 ± 64 µmol/min (Pancreatic alpha-amylase (Homo sapiens, UniProt P04746); enzyme activity, inhibitor; pancreatic; concentration not given).
The binding entropy of `C[C@H](N)C(=O)N[C@@H](CCCNC(=N)N)C(=O)N[C@H](C(=O)N[C@@H](CCCCN)C(=O)N[C@@H](CCC(N)=O)C(=O)N[C@H](C(=O)N[C@@H](C)C(=O)N[C@@H](CCCNC(=N)N)C(=O)N[C@@H](C)C(=O)N[C@@H](CO)C(=O)O)[C@@H](C)O)[C@@H](C)O` is reported as 10.2 cal/mol/K (Transcriptional regulator ATRX (ATRX, Homo sapiens, UniProt P46100, F284Y/K251R); isothermal titration calorimetry; concentration not given, pH 7.5, 25.0 °C).
`CC1CCCN(C(=O)c2cc3ncccn3n2)C1` (stereo not shown) has a fold enrichment of 1.39 (YTH domain-containing protein 1 (Homo sapiens, UniProt Q96MU7); binding, affinity selection mass spectrometry; baseline: other proteins in batch).
With `CC(C)n1c(/C=C/C(O)CC(O)CC(=O)O)c(-c2ccc(F)cc2)c2ccccc21` (stereo not shown) the metabolic activity was 0.93 ± 0.06 (COS-7; WST-8; 6 µM, 24 h, 0.1% DMSO, unit not given; baseline: vehicle control).
For `O=C1NC(=O)/C(=C/c2ccc(-c3ccc(F)cc3O)o2)S1`, the remaining activity was 7% (PIM2 (Homo sapiens, UniProt Q9P1W9); enzyme activity; 10 µM).
For `CC[C@H](C)[C@H](NC(=O)[C@H](CCC(=O)O)NC(=O)[C@H](CCC(=O)O)NC(=O)[C@@H]1CCCN1C(=O)[C@H](CC(=O)O)NC(=O)[C@H](C)NC(=O)[C@H](CCC(N)=O)NC(=O)[C@@H](NC(=O)[C@H](C)NC(=O)[C@@H](NC(=O)[C@H](CO)NC(=O)[C@@H](NC(=O)[C@H](CCCCN)NC(=O)[C@@H](N)Cc1ccc(O)cc1)[C@@H](C)O)C(C)C)[C@@H](C)O)C(=O)N[C@H](C(=O)N[C@H](C(=O)N[C@@H](CC(C)C)C(=O)N[C@@H](COP(=O)(O)O)C(=O)N[C@@H](CC(=O)O)C(=O)N[C@@H](COP(=O)(O)O)C(=O)N[C@@H](CC(=O)O)C(=O)O)C(C)C)[C@@H](C)CC`, “enthalpy change (ΔH)” read 1.62 ± 0.52 kcal/mol (Small ubiquitin-related modifier 1 (Homo sapiens, UniProt P63165, C52A); isothermal titration calorimetry; concentration not given, pH 7.4, SUMO1 construct).
For `CCC[S+]([O-])c1ccc2[nH]c(NC(=O)OC)nc2c1` (stereo not shown), the koff was 4.8e-05 s⁻¹ (Nuclear receptor subfamily 2 group C member 2 ligand-binding domain; SPR imaging; 600 nM).
For `CCCCCCCC(=O)c1cc(OC)c(OC)c(OC)c1CC(=O)OCC`, the metabolic activity was 1.01 ± 0.02 (COS-7; WST-8; 10 µM, 24 h, 0.1% DMSO, unit not given; baseline: vehicle control).
With `CN(C(=O)C(C)(C)c1cc(C(F)(F)F)cc(C(F)(F)F)c1)c1cnc(N2C[C@H]3COCCN3C[C@H]2CO)cc1-c1ccc(F)cc1[14CH3]` the Vmax was 307 pmol/min/mg (human liver microsomes; substrate depletion).
Under “ΔH of binding”, `C[S+](CC[C@H](N)C(=O)O)C[C@H]1O[C@@H](n2cnc3c(N)ncnc32)[C@H](O)[C@@H]1O` (stereo partly shown) is recorded as -4.54 ± 2.67 kcal/mol (O-methyltransferase (Sorghum bicolor, UniProt A0A1B6PFV1); concentration not given, added: PTR+).
For `Nc1nc2c(ncn2[C@@H]2O[C@H](COP(=O)(O)OP(=O)(O)O)[C@@H](O)[C@H]2O)c(=O)[nH]1`, “ΔG of binding” read -6.24 kcal/mol (GUK1 (Homo sapiens, UniProt Q16774); ITC; concentration not given).
`CC[C@H](C)[C@@H]1NC(=O)[C@H]([C@@H](C)O)NC(=O)[C@@H]2CCCN2C(=O)[C@H](CC(C)C)NC(=O)[C@H](Cc2ccc(O)cc2)NC(=O)CSC[C@@H](C(N)=O)NC(=O)[C@H](CC(C)C)NC(=O)[C@@H]2CCCN2C(=O)[C@H](Cc2c[nH]cn2)NC(=O)[C@H](Cc2c[nH]c3ccccc23)NC(=O)[C@H](CC(C)C)NC(=O)[C@H](Cc2c[nH]cn2)NC(=O)CNC(=O)[C@H](C(C)C)NC(=O)CNC(=O)[C@H]([C@@H](C)O)NC1=O` has a -TΔS of 2.1 ± 1.1 kcal/mol (VPS35/VPS29 (Homo sapiens, UniProt Q96QK1+Q9UBQ0); binding, ITC; 25 °C, heterodimer).
For `Cl.O=C1Cc2cc(CCN3CCN(c4nsc5ccccc45)CC3)c(Cl)cc2N1`, the koff was 1.99e-07 s⁻¹ (Nuclear receptor subfamily 2 group C member 2 ligand-binding domain; SPR imaging; 600 nM).
The remaining binding of `C[C@@H](c1ccc(-n2cnc3c(N)ncnc32)cc1)N1CCc2nn(C)c(Cc3ccccc3)c2C1=O` is reported as 76% (ACVR2B (Homo sapiens, UniProt Q13705); KINOMEscan; 0.1 µM; baseline: DMSO).
`COc1cc(-c2cc(C(C)=O)n3ccccc23)cc(OC)c1Cn1ccnc1` has a ΔTm of 4.9 °C (Bromodomain testis-specific protein, BD2 (BRDT, Homo sapiens, UniProt Q58F21)).
`COc1c(O)c(C)cc2c1C(=O)c1c(ccc(O)c1O)C2=O` gave a cell viability of 77.7 ± 8.08% (HepaRG co-cultured with HK-2; MTT; 133.33 µM, 24 h; baseline: untreated control).
`CC(C)OCCn1c(=S)[nH]c(=O)c2[nH]ccc21` has a protein level of 1820 ng/mL and 2630 ng/mL and 2140 ng/mL (Myeloperoxidase (Mus musculus, UniProt P11247); ELISA, item: myeloperoxidase; mice, zymosan or thioglycolate peritonitis, peritoneal lavage; 30 mg/kg).
With `O=C(O)c1ccc(Nc2ncc3c(n2)-c2ccc(Cl)cc2C(c2c(F)cccc2F)=NC3)cc1` the remaining activity was 95% (SAPK2b(h); kinase activity; 1 µM).
`CCCC[C@H]1CN(c2cccc(OC(F)(F)F)c2)C(=O)CN1Cc1cncn1Cc1cccc(C#N)c1` gave an IC50 of 740 ± 310 nM (Cryptococcus neoformans farnesyltransferase; enzyme activity, inhibitor, fluorescence; added: 1 µM FPP, 0.5 µM dansylated peptide).

Repeated from above:
With `O=C(O)c1ccc(Nc2ncc3c(n2)-c2ccc(Cl)cc2C(c2c(F)cccc2F)=NC3)cc1` the remaining activity was 95% (SAPK2b(h); kinase activity; 1 µM).
